Results of several laboratories.
Parts stem from different laboratories: compare values within a part only.

Set 1
Target: RING finger protein unkempt homolog, zinc fingers 1-6, GST-SBP tag (UNK, Homo sapiens, UniProt Q9C0B0, residues 30-357)
Method: RNA Bind-n-Seq
Form: RNA
Matrix: in vitro
Concentration: not given
Notes: RNA with constant flanks, human-mouse chimeric sites, ends assumed
Baseline: input RNA pool
Reading: higher = stronger binding
Measurement: bound/input enrichment
Constant ends, left off below: GGGAGUUCUACAGUCCGACGAUC … CAACAGAGGAUUGAGCAUCA
Target sequence (chain): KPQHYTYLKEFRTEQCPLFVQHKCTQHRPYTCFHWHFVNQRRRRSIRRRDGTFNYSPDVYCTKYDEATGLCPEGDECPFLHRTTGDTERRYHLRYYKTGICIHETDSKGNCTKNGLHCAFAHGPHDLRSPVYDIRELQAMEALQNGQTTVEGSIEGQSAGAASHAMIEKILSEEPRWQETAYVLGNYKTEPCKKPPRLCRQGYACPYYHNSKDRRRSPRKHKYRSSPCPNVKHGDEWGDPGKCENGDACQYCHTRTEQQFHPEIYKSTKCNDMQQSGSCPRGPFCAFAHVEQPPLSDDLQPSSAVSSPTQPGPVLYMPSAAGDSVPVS
UCCCAAAUUAUAAGGCACCUUGAAAUAUUGAGACAAACACUCCACACACAGGGAAGGCGAUAACAUUGUACAUUGGUUUACAUUUUUUCCCCCUGUGGAUUUUUCUAGAGGUCAUAGUGC: 0.246 ratio
GAUCCACAGUGGUCUGAGGAGCAACUCAUUGCUGCAAAAUUUUGCUUUGCUGGCCUUGUUAUAGGGCAGACUGAAGUGGAUAUCAUGAGUCAUGCCACACAAGCUAUUUUUGAAAUUCUG: 0.159 ratio
GAAUCCUCCCGUGCAAAAUUUUGCAACACCAAGCUCACAGCAGCAGCAUCUUAGUCACAGUAGGGUAGUUUUGGGGCUCUGUGGCCAGGGUUUUAUUCACAUGCAGGUUUGGAAAAUGUA: 2.25 ratio
AAAGUGAUGACUAUGUUUGUCCAACGACAGGUAUUUUCGGAGAGCAAGGAUGAGAUUGCGUUAGUCCUGUUUGGUACAGAUGGCACUGAUAAUGCCCUUGCUGGCAAGGACCAGUAUCAG: 0.132 ratio
CACACACUCUUCUGCGGGACCCUCAUCCUGCAGGCCCGGGCCUAUGUGGGACCGCACGUCCUGGCAGUGGUGACUCGCACAGGGUUCUGCACGGCAAAAGGGGGCCUGGUGAGCUCCAUC: 0.0915 ratio

Set 2
Target: Centromere-binding protein 1, full length, N-terminal tag (CBF1, Saccharomyces cerevisiae, UniProt P17106, residues 1-351)
Sequence of UniProt P17106 (whole entry, looked up): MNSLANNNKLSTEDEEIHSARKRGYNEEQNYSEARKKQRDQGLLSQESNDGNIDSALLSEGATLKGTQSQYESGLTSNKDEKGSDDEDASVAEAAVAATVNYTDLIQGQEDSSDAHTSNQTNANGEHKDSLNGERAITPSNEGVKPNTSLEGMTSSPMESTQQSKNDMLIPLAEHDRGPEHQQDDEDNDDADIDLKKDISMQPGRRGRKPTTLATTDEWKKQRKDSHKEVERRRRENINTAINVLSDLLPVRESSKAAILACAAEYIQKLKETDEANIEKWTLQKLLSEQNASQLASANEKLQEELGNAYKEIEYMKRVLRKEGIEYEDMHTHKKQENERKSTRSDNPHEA
Method: protein-binding microarray
Form: double-stranded DNA, one strand shown
Matrix: in vitro
Concentration: 0.8 µM
Notes: whole 60-bp probe, no competitor
Reading: higher = stronger binding
Measurement: fluorescence intensity
Constant ends, left off below: … GTCTTGATTCGCTTGACGCTGCTG
CCTAACTACTATAACCTCATGATATAGCTTCGTACA: 584 a.u.
TGTACGAAGCTATTCAGCGTGGTTATAGTAGTTAGG: 528 a.u.
GAAATCGATTTTTGTCACCTGCAAACTCTTCTTTAG: 864 a.u.
CTAAAAATACAAAATAACGTGGATGTATTAAACTTC: 585 a.u.
GAACTTTAAAACTGTAACATCATATCGAAGGTATAG: 542 a.u.
GAAATTGAACAACACCACGCAGTCTAGTAATGTTAG: 514 a.u.
CTATAGAAAGATAGGCACATGCCAATTGTGTGCTTC: 758 a.u.
CTATTTTAAGAGCATGATGTTGTATATAAATATTTC: 618 a.u.
CTAAAAAAAAAAAAGCACGTGCTCAAAAATGTTTTC: 19600 a.u.
CTAAAAAGGTGCACACGCGTGGCTTTTTCTTGATTC: 617 a.u.
GAAGAGCACTACCATGACGTCATTAACGTAAAATAG: 550 a.u.
CTACTGAAATCAATCTTCGTGCACCCAGAGAAGTTC: 548 a.u.
GAATTTTTAGGATATCCGTCACCCGTGATTCCGTAG: 1420 a.u.
GAACTGGGGAAGGTGCACGCCCTTTTCACAAGATAG: 569 a.u.
CTATTTTTTCTGTCAGGTGCGGCCCATCATCGATTC: 1640 a.u.
GAACTTCAAAAAACCCATGTGAGACTGAAACATTAG: 654 a.u.
CTACAGCGCATACGACGGTCACCTAGGATGGAGTTC: 528 a.u.
CCTAACTACTATACACTGATGACATAGCTTCGTACA: 547 a.u.
CTAGGAATAAATATACTGGTGATTGTTTATGAATTC: 530 a.u.

Set 3
Target: Prothrombin, mature alpha-thrombin (F2, Homo sapiens, UniProt P00734)
Method: aptamer microarray, sandwich
Form: DNA with 2'F-ANA
Matrix: in vitro
Concentration: 200 nM
Notes: whole 15-mer aptamer, many near background
Added: Cy3 exosite-II aptamer, 400 nM
Reading: higher = stronger binding
Measurement: mean fluorescence intensity
Strand: GGTTGGTGTGGTTGG
2'F-ANA at 1 3 5 6 12 14 15: 68.1 a.u.
2'F-ANA at 3 4 5 6 8 9 12 14 15: 97.5 a.u.
2'F-ANA at 1 4 7 9 11 13 14: 51.6 a.u.
2'F-ANA at 1 6 8 9 10 11 13 15: 53.9 a.u.
2'F-ANA at 1 2 3 5 6 7 8 10 11 12 13: 65.3 a.u.
2'F-ANA at 1 4 8 12 13: 258 a.u.
2'F-ANA at 1 4 5 6 9 10 11 12 14: 44.6 a.u.
2'F-ANA at 1 2 3 4 5 8 9 10 11 12 14 15: 55.7 a.u.
2'F-ANA at 1 3 7 9 13: 239 a.u.
2'F-ANA at 2 3 4 5 6 7 9 11 13 14: 48.4 a.u.
2'F-ANA at 2 5 6 9 11 15: 57.1 a.u.
2'F-ANA at 1 2 3 5 6 8 9 10 14 15: 52.6 a.u.
2'F-ANA at 1 9 13: 137 a.u.
2'F-ANA at 1 2 3 5 6 7 8 10 12 15: 52.4 a.u.
2'F-ANA at 3 4 6 8 9 11 12 15: 695 a.u.
2'F-ANA at 2 4 5 6 7 10 11 14 15: 49.8 a.u.
2'F-ANA at 7 14: 289 a.u.
2'F-ANA at 3 5 7 8 10 12 14: 53.3 a.u.
2'F-ANA at 1 2 3 4 8 12: 528 a.u.
2'F-ANA at 2 6 7 8 9 12 13 14: 149 a.u.
2'F-ANA at 1 2 5 8 9 10 14: 50.5 a.u.
2'F-ANA at 1 2 3 5 7 9 10 11 13: 45.9 a.u.
2'F-ANA at 2 3 5 6 8 9 10: 59.4 a.u.
2'F-ANA at 1 4 5 9 10 12 14: 43.4 a.u.
2'F-ANA at 1 3 10 12 13 15: 111 a.u.

Set 4
Molecule: PhoQ, residues 284 288 289 292 302 303 AMDMFI
Method: Sort-seq
Measured: YFP reporter
Matrix: E. coli
Notes: PhoQ-PhoP variant library
Added: 10 µM Mg2+
Baseline: high Mg2+ state
Reading: higher = stronger signaling
Measurement: fold induction
PhoP, residues 12 14 15 18 19 NFFVT (Escherichia coli, UniProt P23836): 2
PhoP, residues 12 14 15 18 19 TPWTL (Escherichia coli, UniProt P23836): 2.15
PhoP, residues 12 14 15 18 19 VGHWL (Escherichia coli, UniProt P23836): 0.759
PhoP, residues 12 14 15 18 19 LHHYF (Escherichia coli, UniProt P23836): 1.4

Set 5
Target: Histone acetyltransferase KAT6A, winged helix 2, GST fusion (KAT6A, Homo sapiens, UniProt Q92794, residues 85-181)
Method: protein binding microarray
Form: double-stranded DNA, one strand shown
Matrix: in vitro
Concentration: not given
Notes: 8-mer, flanks averaged, mean of 2 arrays, mostly near background
Baseline: not given
Reading: higher = stronger binding
Measurement: E-score
Target sequence (chain): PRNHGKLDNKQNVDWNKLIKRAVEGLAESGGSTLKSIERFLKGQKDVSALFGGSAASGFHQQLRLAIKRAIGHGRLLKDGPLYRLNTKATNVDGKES
CCGGTACA: -0.035
AGCGTGGG: 0.0338
GAACCGCC: 0.0418
CCGGAGAC: 0.102
GACTATGA: -0.0712
CTATTCAG: 0.0513
TTACAGAA: -0.042
AATTTTAG: -0.0375
ATCAACAG: 0.085
GCCTAGTA: -0.054
CTGAAGCC: -0.0284
ATTTCGAA: 0.0684
CGTTGGTA: 0.102
CATTATAC: -0.0601
GCCCCCAC: -0.0238
GACTGACA: -0.0788
ATGACACA: 0.0444
AAAGTAGC: -0.0622
AATCTTCG: 0.133
CTACGCAG: 0.115
ACCAGTCG: 0.0356
CGTTAGCA: 0.108
CGCCAGCA: 0.0984
ATTCTTAA: -0.052
ACGTAGAC: -0.264

Some of these lines once more (set 3):
2'F-ANA at 1 3 5 6 12 14 15: 68.1 a.u.
2'F-ANA at 3 4 5 6 8 9 12 14 15: 97.5 a.u.
2'F-ANA at 1 4 7 9 11 13 14: 51.6 a.u.
2'F-ANA at 1 6 8 9 10 11 13 15: 53.9 a.u.
2'F-ANA at 1 2 3 5 6 7 8 10 11 12 13: 65.3 a.u.
2'F-ANA at 1 4 8 12 13: 258 a.u.
2'F-ANA at 1 4 5 6 9 10 11 12 14: 44.6 a.u.
2'F-ANA at 1 2 3 4 5 8 9 10 11 12 14 15: 55.7 a.u.
2'F-ANA at 1 3 7 9 13: 239 a.u.
2'F-ANA at 2 3 4 5 6 7 9 11 13 14: 48.4 a.u.
2'F-ANA at 2 5 6 9 11 15: 57.1 a.u.
